# Experimental data of several laboratories.
# Lines come from different studies, so protocols differ. Values joined by “and” are separate records of one study, mostly repeats; a detail may differ. ± gives the spread as reported.
Compound,cell line,test,conditions,scale,measurement,result
CC(C)CC(O)(CC(C)C)c1cn(C(=O)N2CCCC2)nn1,mouse T-cells,"protein abundance, unenriched SILAC proteomics, measured: S100a6","1 nM, 6 h, single tryptic peptide",reference: DMSO,SILAC ratio,1.14 and 0.93
CC(C)(C)C(=O)OCOP(=O)(OCOC(=O)C(C)(C)C)C1CCCN(O)C1=O (stereo not drawn),NCI-H522,,,,TGI,1.83 µM
CC(=O)Oc1ccccc1C(=O)[Se]CC(=O)Nc1cccc(C(F)(F)F)c1,NCI60 breast subpanel,NCI60 five-dose screen,,,CC50,44 µM
CC[C@H](C)[C@H](NC(=O)[C@@H](NC(=O)[C@@H]1CCCN1C(=O)[C@@H](NC(=O)[C@@H](NC(=O)[C@H](Cc1c[nH]cn1)NC(=O)[C@@H]1CCCN1C(=O)[C@H](CC(C)C)NC(=O)[C@@H](NC(=O)[C@H](Cc1c[nH]cn1)NC(=O)[C@H](CCCCN)NC(=O)[C@H](C)NC(=O)[C@H](CO)NC(=O)CNC(=O)[C@H](CC(C)C)NC(=O)[C@@H](NC(=O)CNC(=O)[C@H](Cc1ccccc1)NC(=O)[C@H](CC(C)C)NC(=O)CNC(=O)[C@@H](N)Cc1ccc(O)cc1)C(C)C)C(C)C)C(C)C)C(C)C)C(C)C)C(=O)N[C@@H](C)C(=O)N[C@@H](CCC(=O)O)C(=O)N[C@@H](Cc1c[nH]cn1)C(=O)N[C@@H](CC(C)C)C(N)=O,HepG2,MTT,"30 µg/mL, 24 h",,viability,96.4 ± 4.82%
Cc1cc(Oc2nc(N3CC[C@@H](c4ccncc4)C3)ncc2F)[nH]n1,MDA-MB-468,cell growth or viability,,,IC50,32.4 µM
CC(C)C[C@H](NC(=O)[C@H](CCC(=O)O)NC(=O)[C@@H](N)Cc1ccccc1)C(=O)N[C@@H](CCC(=O)O)C(=O)N[C@@H](CCCNC(=N)N)C(=O)N[C@@H](CCCNC(=N)N)C(=O)N[C@@H](Cc1ccccc1)C(=O)N[C@@H](CCCCN)C(=O)N[C@@H](CCC(N)=O)C(=O)N[C@@H](CCC(N)=O)C(=O)O,HCT-116,CCK-8,5 µM,reference: vehicle,viability,106% and 102% and 103%
CC(C)C[C@H](NC(=O)[C@H](CC(=O)O)NC(=O)CNC(=O)[C@@H](N)CCCNC(=N)N)C(=O)N[C@@H](C)C(=O)N[C@H](C(=O)N[C@@H](CC(C)C)C(=O)N[C@@H](CCCNC(=N)N)C(=O)N[C@@H](CCC(N)=O)C(=O)N[C@@H](CC(C)C)C(=O)N[C@@H](C)C(=O)N[C@@H](CCC(N)=O)C(=O)N[C@@H](CCC(=O)O)C(=O)N[C@@H](CC(=O)O)C(=O)NCC(=O)N[C@H](C(=O)N[C@H](C(=O)NCC(=O)N[C@H](C(=O)N[C@@H](CCCNC(=N)N)C(=O)NCCOCCOCCOCCOCCOCCOCCOCCOCCOCCOCCOCCOCCC(=O)N[C@@H](CS)C(N)=O)C(C)C)C(C)C)C(C)C)[C@@H](C)O,BEAS-2B bronchial epithelial,"cell binding, phage binding, measured: output/input phage","10 min, 37 °C",reference: control phage,selectivity ratio,4.1 ± 2
O=C(C[Se]C(=O)c1cc2ccccc2s1)Nc1cccc(C(F)(F)F)c1,NCI60 colon subpanel,NCI60 five-dose screen,,,CC50,19.1 µM
O=C(O)c1ccc(-c2nc(-c3ccccc3Cl)c3sccn23)cc1,K562,"erythroid differentiation, flow cytometry","0.01 mM, 48 h, unit not given",reference: untreated,CD71 fluorescence intensity,1

# A few entries again:
Compound,cell line,test,conditions,scale,measurement,result
CC[C@H](C)[C@H](NC(=O)[C@@H](NC(=O)[C@@H]1CCCN1C(=O)[C@@H](NC(=O)[C@@H](NC(=O)[C@H](Cc1c[nH]cn1)NC(=O)[C@@H]1CCCN1C(=O)[C@H](CC(C)C)NC(=O)[C@@H](NC(=O)[C@H](Cc1c[nH]cn1)NC(=O)[C@H](CCCCN)NC(=O)[C@H](C)NC(=O)[C@H](CO)NC(=O)CNC(=O)[C@H](CC(C)C)NC(=O)[C@@H](NC(=O)CNC(=O)[C@H](Cc1ccccc1)NC(=O)[C@H](CC(C)C)NC(=O)CNC(=O)[C@@H](N)Cc1ccc(O)cc1)C(C)C)C(C)C)C(C)C)C(C)C)C(C)C)C(=O)N[C@@H](C)C(=O)N[C@@H](CCC(=O)O)C(=O)N[C@@H](Cc1c[nH]cn1)C(=O)N[C@@H](CC(C)C)C(N)=O,HepG2,MTT,"30 µg/mL, 24 h",,viability,96.4 ± 4.82%
